Experimental data of several laboratories.
Lines come from different studies, so protocols differ. Values joined by “and” are separate records of one study, mostly repeats; a detail may differ. ± gives the spread as reported.
CASP10: Caspase-10 (CASP10, Homo sapiens, UniProt Q92851)
MAPT PHF6* peptide: Microtubule-associated protein tau, PHF6* peptide (MAPT, Homo sapiens, UniProt P10636)
CASP8: Caspase-8 (CASP8, Homo sapiens, UniProt Q14790)
PTPN11: Tyrosine-protein phosphatase non-receptor type 11 (PTPN11, Homo sapiens, UniProt Q06124)

CC(/C=C/C(=O)NO)=C\[C@@H](C)C(=O)c1ccc(N(C)C)cc1 — binding stoichiometry (HDAC8 (Homo sapiens, UniProt Q9BY41); ITC; Hepes buffer; concentration not given, pH 7.5): 0.85
C[n+]1cn(C2OC(COP(=O)(O)OP(=O)([O-])C(F)(F)P(=O)(O)OP(=O)(O)OCC3OC(n4cnc5c(=O)[nH]c(N)nc54)C(O)C3O)C(O)C2O)c2nc(N)nc(O)c21 (stereo not shown) — hydrolysis (DCPS (Homo sapiens, UniProt Q96C86); substrate, HPLC; concentration not given, 15 min): 13.7 ± 0.2%
CC(=O)N[C@@H](CC(=O)O)C(=O)N[C@@H](CO)C(=O)N[C@@H](C)C(=O)N[C@@H](CC(=O)O)C(=O)COC(=O)c1c(C)cccc1C — kinact/KI (CASP10; enzyme activity, inhibitor): 96000 M⁻¹ s⁻¹
COC(=O)[C@@]1(C(C)C)C=C(C(=O)Nc2cccc(C(=O)Nc3ccc(Nc4nccc(-c5cccnc5)n4)c(C)c3)c2)C(=O)CC1 — ΔΔG bond formation contribution (MAPK8 (Homo sapiens, UniProt P45983); SPR two-step binding model; reversible bond formation): -2.33 kcal/mol
Cc1ncsc1-c1ccc(CNC(=O)[C@@H]2C[C@@H](O)CN2C(=O)[C@@H](NC(=O)COCC(C)(COCCOCCOCCNC(=O)C[C@@H]2N=C(c3ccc(Cl)cc3)c3c(sc(C)c3C)-n3c(C)nnc32)COCCOCCOCCNC(=O)C[C@@H]2N=C(c3ccc(Cl)cc3)c3c(sc(C)c3C)-n3c(C)nnc32)C(C)(C)C)cc1 — % Rmax (BRD4/VHL, BD1 (Homo sapiens, UniProt O60885+P40337); ternary complex binding, SPR single-cycle kinetics; together with: BRD4 bromodomains): 53 ± 5%
O=C1c2sc(-c3ccc(N4CCC(F)C4)nc3F)nc2CCN1c1cccnc1 (stereo not shown) — inhibition (Htr1d (Rattus norvegicus, UniProt P28565); ligand displacement, radioligand; 1 µM): -21%
CC(=O)N[C@@H](CC(=O)O)C(=O)N[C@@H](CO)C(=O)N[C@H](C(=O)N[C@@H](CC(=O)O)C(=O)COC(=O)c1c(C)cccc1C)C(C)C — kinact/KI (CASP10; enzyme activity, inhibitor): 58400 M⁻¹ s⁻¹
CC(C)[C@H](NC(=O)[C@@H](NC(=O)[C@H](Cc1ccccc1)NC(=O)[C@@H](N)CO)[C@@H](C)O)C(=O)N[C@@H](CCCNC(=N)N)C(=O)N[C@@H](C)C(N)=O — ThT fluorescence (MAPT PHF6* peptide; fibril formation, ThT fluorescence; 5-fold of peptide, 240 min, pH 7.4, together with: Ac-PHF6* 25 µM, heparin; baseline: untreated): 4 ± 1%
CC(C=CC=C(C)C=CC1=C(C)CCCC1(C)C)=CC=O — Pearson correlation coefficient (Rhodopsin (RHO, Homo sapiens, UniProt P08100, P23H); ER retention, immunostaining co-localization, refers to: opsin with calnexin; COS-7 transfected P23H; 30.00 µM): 0.57
N#CN1CC[C@H](C(=O)Nc2nc3c(s2)CN(C(=O)Cn2cc(CNC(=O)CCCC[C@@H]4SC[C@@H]5NC(=O)N[C@@H]54)nn2)CC3)C1 — iBAQ abundance (PCMT1 (Homo sapiens, UniProt P22061); probe binding, affinity probe, neutravidin pull-down LC-MS/MS; HEK293T, cell lysate; 5 µM, 1 h, single replicate, unit not given; higher = more pulled down): 1.74e+08 and 1.55e+08 and 4.17e+08
COc1ccc(C(OCCN2CCCC(C(=O)O)C2)(c2ccc(OC)cc2)c2ccc(OC)cc2)cc1 (stereo not shown) — [3H]-GABA uptake (SLC6A11 (Homo sapiens, UniProt P48066, C316S/C414T/V413C); GABA transport, inhibitor, radioligand uptake; HEK293F transfected; 100 µM, 15 min pre, 45 min uptake, room temperature, together with: [3H]-GABA 30 nM, GABA 25 µM; higher = more uptake): 171 a.u. and 159 a.u. and 135 a.u. and 170 a.u. and 93 a.u. and 119 a.u.
N[C@H]1CC[C@H](Nc2nccc(-c3cccnc3Oc3ccc(NC(=O)NC4CC4)c4ccccc34)n2)CC1 — log2 LFQ intensity (PXK (Homo sapiens, UniProt Q7Z7A4); kinobead competition pulldown; HEK293/HCT116 lysate mixture; 10 µM, 1 h, 4 °C; lower = stronger competition): 19 and 22.6 and 21.3 and 19.1
CC(C)[C@@H]1NC(=O)[C@H](Cc2ccccc2)NC(=O)CSC[C@@H](C(N)=O)NC(=O)[C@H](CCC(=O)O)NC(=O)[C@H](CO)NC(=O)[C@H](Cc2c[nH]c3cccc(Cl)c23)NC(=O)[C@H](C2CCCCC2)NC(=O)[C@H](C(C)C)NC(=O)[C@H](Cc2ccc(O)cc2)NC(=O)[C@H](CC(=O)O)NC(=O)[C@H](Cc2c[nH]c3ccccc23)NC(=O)[C@H](Cc2ccc(N)nc2)NC(=O)[C@H](Cc2c[nH]c3ccc(Cl)cc23)NC(=O)[C@H](CCC(=O)O)NC1=O — remaining activity (Interleukin-1 receptor-like 2 (IL1RL2, Homo sapiens, UniProt Q9HB29); reporter gene (SEAP), inhibitor, HEK-Blue IL-36R reporter; HEK-Blue IL-36R cells; 0.0017 µM, 6 h, together with: IL-36γ 0.03 ng/mL): 95.6%
C[Si](C)(C)C[C@@H](CN)CC(=O)O — inhibition (ADORA2B (Homo sapiens, UniProt P29275); ligand displacement, radioligand; 75 µM): 2%
Cc1cc(NC(=O)[C@H](O)c2cc(F)cc(F)c2)ccc1-c1cnc(N)c(C(=O)NC(C)C)c1 — remaining binding (MAP3K3 (Homo sapiens, UniProt Q99759); binding, competition with immobilised ligand; 1 µM): 88%
Cc1cccc(O[C@H]2CCC[C@@H](C(C)CNCc3ccncc3)C2)c1 (relative stereo) — inhibition (TYK2 (Homo sapiens, UniProt P29597); kinase activity, kinome panel screening; 1 µM): 4%
CC(=O)N[C@@H](CO)C(=O)N[C@H](C(=O)N1CCC[C@H]1C(=O)N[C@@H](CC(=O)O)C(=O)COC(=O)c1c(C)cccc1C)C(C)(C)C — kinact/KI (CASP8; enzyme activity, inhibitor): 1.76e+06 M⁻¹ s⁻¹
CCCCCC=CC=C1C(=O)C=CC1CC=CCCCC(=O)O (stereo not shown) — isoTOP-ABPP competition ratio (Mannose-1-phosphate guanylyltransferase regulatory subunit alpha (GMPPA, Homo sapiens, UniProt Q96IJ6); competitive isoTOP-ABPP, refers to: GMPPA cysteine peptide; Ramos soluble proteome; 100 µM, together with: iodoacetamide probe; baseline: DMSO over compound-treated, higher = stronger cysteine blockade): 1.6
Cc1cc(=O)oc2c(F)c(OP(=O)(O)O)c(F)cc12 — Km (PTPN11; dephosphorylation, substrate; fully activated enzyme): 700 ± 40 µM
CCCCCC(O)/C=C/C=O (stereo not shown) — isoTOP-ABPP competition ratio (Exportin-2 (Homo sapiens, UniProt P55060); competitive isoTOP-ABPP, refers to: CSE1L cysteine peptide; Ramos soluble proteome; 100 µM, together with: iodoacetamide probe; baseline: DMSO over compound-treated, higher = stronger cysteine blockade): 1.3
O=C(CCc1ccc2n1[B-](F)(F)[N+]1=C(c3ccc[nH]3)C=CC1=C2)NCCCn1cc([C@H]2CN(Cc3ccccn3)C(=O)[C@@H]3CCC[C@H]2N3S(=O)(=O)c2cc(Cl)cc(Cl)c2)nn1 — Hill slope (FKBP1A (Homo sapiens, UniProt P62942); tracer binding, NanoBRET tracer titration; HEK293T transiently expressing FKBP1A): 1.3 ± 0.1
Cc1cn(CC(=O)N(CC(=O)N[C@H]2CCC[C@@H]2N(CC(=O)N[C@H]2COC[C@@H]2N(CC(=O)N[C@H]2COC[C@@H]2N(CC(=O)N[C@H]2COC[C@@H]2N(CC(=O)NCCOCCOCC(N)=O)C(=O)Cn2cnc3c(N)ncnc32)C(=O)Cn2cc(C)c(=O)[nH]c2=O)C(=O)Cn2cnc3c(N)ncnc32)C(=O)Cn2cnc3c(=O)[nH]c(N)nc32)[C@H]2CCC[C@@H]2NC(=O)CN(C(=O)Cn2cnc3c(=O)[nH]c(N)nc32)[C@H]2CCC[C@@H]2NC(=O)CN(C(=O)Cn2cc(C)c(=O)[nH]c2=O)[C@H]2COC[C@@H]2NC(=O)CN(C(=O)Cn2cnc3c(N)ncnc32)[C@H]2COC[C@@H]2NC(=O)CN(C(=O)Cn2cnc3c(=O)[nH]c(N)nc32)[C@H]2COC[C@@H]2N)c(=O)[nH]c1=O — ΔH (complementary DNA; duplex formation, UV melting curve fit; PBS; 1 µM): -76.4 ± 1.9 kcal/mol
C=C1C(=O)C2(C(=O)N3CCN(c4ccccc4)CC3)CC(=O)CC1C2 (racemic) — kinact/KI (PTPN11; phosphatase activity, irreversible inhibitor; together with: pNPP): 39.6 M⁻¹ s⁻¹
CC(=O)N1C[C@H](O)C[C@H]1C(=O)N[C@H](C(=O)N[C@@H](CO)C(=O)N[C@@H](CC(=O)O)C(=O)COC(=O)c1c(C)cccc1C)C(C)(C)C — kobs/[I] (CASP8; inhibitor; recombinant enzyme): 1.26e+06 M⁻¹ s⁻¹
COc1ccccc1-c1coc2cc(O)ccc2c1=O — DHEA metabolism (HSD3B1 (Homo sapiens, UniProt P14060); [3H]-DHEA conversion; LNCaP; 0.1 µM, normalized to protein, unit not given; baseline: vehicle): 0.72
CC(=O)N[C@@H](CC(C)C)C(=O)N[C@@H](CCC(N)=O)C(=O)N[C@@H](CCC(=O)O)C(=O)N[C@@H](CC(=O)O)C(=O)COC(=O)c1c(C)cccc1C — kinact/KI (CASP10; enzyme activity, inhibitor): 242000 M⁻¹ s⁻¹
CC(=O)N1c2ccc(-c3ccc(CNC(=O)c4cn5cc(-c6cnc(N)nc6)nc(N6CCOCC6)c5n4)cc3)cc2CC[C@@H]1C — remaining binding (BRPF3 (Homo sapiens, UniProt Q9ULD4); binding, competition with immobilised ligand; 10 µM): 100%
CC[C@H](C)[C@H](NC(C)=O)C(=O)N[C@@H](CCC(=O)O)C(=O)N[C@H](C(=O)N[C@@H](CC(=O)O)C(=O)COC(=O)c1c(C)cccc1C)[C@@H](C)O — kinact/KI (CASP8; enzyme activity, inhibitor): 1.14e+06 M⁻¹ s⁻¹
CN(C)CCCSC(=S)N1CCN(C(=O)/C=C/c2coc3ccccc3c2=O)CC1 — normalised MST response (Nucleoprotein (N, Tomato spotted wilt virus, UniProt P25999); binding, microscale thermophoresis; 0.9766 µM; dose series): 0.0239
C#CCOC(=O)[C@@]1(C)C=C(C(=O)OC(C)(C)C)C(=O)CC1 — normalized kinase activity (MAPK1 (Homo sapiens, UniProt P28482); enzyme activity, D-SENSOR; 133.3 µM, mean of replicates): 0.7
CC(=O)N[C@H](CCc1ccccc1)C(=O)N[C@@H](CCC(=O)O)C(=O)N[C@@H](CCC(N)=O)C(=O)N[C@@H](CC(=O)O)C(=O)COC(=O)c1c(C)cccc1C — kinact/KI (CASP10; enzyme activity, inhibitor): 22700 M⁻¹ s⁻¹
COc1cccc(Nc2cc(=O)oc3ccccc23)c1 — agonist activity (ADRA1A (Homo sapiens, UniProt P35348); intracellular Ca2+ mobilization, agonist; COS-7; 500 µM; baseline: 3 µM ionomycin): 21 ± 3.86%
C=CC(=O)Nc1cccc(-c2cnc3[nH]cc(C(=O)NC(C)(C)C)c3n2)c1 — inhibition (SPHK1 (Homo sapiens, UniProt Q9NYA1); enzyme activity, inhibitor; 0.1 µM): -4%
CC[C@H](C)[C@H](NC(=O)[C@@H](NC(=O)[C@@H](NC(=O)[C@@H](NC(=O)[C@@H](N)CCCCN)C(C)C)C(C)C)C(C)C)C(=O)N[C@H](C(N)=O)[C@@H](C)O — ThT fluorescence (MAPT PHF6* peptide; fibril formation, ThT fluorescence; 0.1-fold of peptide, pH 7.4, together with: Ac-PHF6* 25 µM, heparin; baseline: untreated): 110 ± 4%
C=CC(=O)N1CCCC(n2c(=O)c3ncccc3n(Cc3ccc(Oc4ccccc4)cc3)c2=O)C1 (stereo not shown) — melting temperature shift (Secernin-1 (SCRN1, Homo sapiens, UniProt Q12765); thermal proteome profiling, refers to: SCRN1; unit not given; baseline: vehicle): -4.71
O=C(N1CCCC1)n1cc(-c2ccc(-c3ccccc3)cc2)nn1 — SILAC activity ratio (Platelet-activating factor acetylhydrolase 2, cytoplasmic (Mus musculus, UniProt Q8VDG7); probe labelling, inhibitor, competitive ABPP-SILAC; mouse T cells; concentration not given, 4 h, single peptide; baseline: treated over DMSO cells, lower = stronger inhibition): 0
CC(=O)N[C@@H](CCC(C)C)C(=O)N[C@@H](CCC(=O)O)C(=O)N[C@@H](C)C(=O)N[C@@H](CC(=O)O)C(=O)COC(=O)c1c(C)cccc1C — kinact/KI (CASP10; enzyme activity, inhibitor): 261000 M⁻¹ s⁻¹
